Measurements collected from several papers.
Compare with care: the assays were run in different laboratories. ± gives the spread as reported.

`CCCOC(=O)c1ccc(O)cc1` has an EC20 of greater than 800 µM (cytochrome c release, ELISA; BALB/cByJ female mouse liver mitochondria; 30 min; reference: alamethicin maximal release).
Under “absorption rate constant”, `CC[C@H](C)[C@H](NC(=O)[C@H](CCC(=O)O)NC(=O)[C@H](CO)NC(=O)[C@@H](NC(=O)[C@@H](N)CO)C(C)C)C(=O)N[C@@H](CCC(N)=O)C(=O)N[C@@H](CC(C)C)C(=O)N[C@@H](CCSC)C(=O)N[C@@H](Cc1cnc[nH]1)C(=O)N[C@@H](CC(N)=O)C(=O)N[C@@H](CC(C)C)C(=O)NCC(=O)N[C@@H](CCCCN)C(=O)N[C@@H](Cc1cnc[nH]1)C(=O)N[C@@H](CC(C)C)C(=O)N[C@@H](CC(N)=O)C(=O)N[C@@H](CO)C(=O)N[C@@H](CCSC)C(=O)N[C@@H](CCC(=O)O)C(=O)N[C@@H](CCCN=C(N)N)C(=O)N[C@H](C(=O)N[C@@H](CCC(=O)O)C(=O)N[C@@H](Cc1c[nH]c2ccccc12)C(=O)N[C@@H](CC(C)C)C(=O)N[C@@H](CCCN=C(N)N)C(=O)N[C@@H](CCCCN)C(=O)N[C@@H](CCCCN)C(=O)N[C@@H](CC(C)C)C(=O)N[C@@H](CCC(N)=O)C(=O)N[C@@H](CC(=O)O)C(=O)N[C@H](C(=O)N[C@@H](Cc1cnc[nH]1)C(=O)N[C@@H](CC(N)=O)C(=O)N[C@@H](Cc1ccccc1)C(=O)O)C(C)C)C(C)C` is recorded as 0.63 h⁻¹ (population pharmacokinetic model; postmenopausal osteoporotic women, serum; subcutaneous, 20 µg).
For `NC(=O)CC[C@@H]1NC(=O)[C@H](Cc2ccccc2)NC(=O)[C@H](Cc2ccc(O)cc2)NC(=O)CCSSC[C@@H](C(=O)N2CCC[C@H]2C(=O)N[C@H](CCCN=C(N)N)C(=O)NCC(N)=O)NC(=O)[C@H](CC(N)=O)NC1=O`, “processed sample stability” read 95.1% (UPLC-MS/MS; processed plasma extract; 3.05 pg/mL, 48 h, 10 °C, autosampler).
With `Cc1cn([C@H]2C[C@H](N=[N+]=[N-])[C@@H](CO)O2)c(=O)[nH]c1=O` the EC20 was greater than 200 µM (cytochrome c release, ELISA; BALB/cByJ female mouse liver mitochondria; 30 min; reference: alamethicin maximal release).
`COc1cc2c(cc1OC)CN(CCc1ccc(NC(=O)c3cc(OC)c(OC)cc3NC(=O)c3cnc4ccccc4c3)cc1)CC2` gave a brain concentration of 1580 ng/mL (Wistar Unilever rat; intravenous, 5 mg/kg, 3 h).
`CC(C)C[C@H](NC(=O)[C@H](Cc1ccc(O)cc1)NC(=O)[C@H](CC(N)=O)NC(=O)[C@H](CO)NC(=O)CNC(=O)[C@H](Cc1ccc(O)cc1)NC(=O)[C@H](CC(=O)O)NC(=O)CNC(=O)[C@H](Cc1ccc(O)cc1)NC(=O)[C@H](Cc1ccccc1)NC(=O)[C@@H]1CCCN1C(=O)[C@H](Cc1ccccc1)NC(=O)[C@H](CCC(=O)O)NC(=O)[C@H](CCCNC(=N)N)NC(=O)[C@H](Cc1c[nH]cn1)NC(=O)[C@H](CO)NC(=O)[C@H](Cc1c[nH]cn1)NC(=O)[C@H](Cc1c[nH]cn1)NC(=O)[C@H](CCCCN)NC(=O)[C@H](CCC(=O)O)NC(=O)[C@H](Cc1c[nH]cn1)NC(=O)[C@H](Cc1ccccc1)NC(=O)[C@H](CCCCN)NC(=O)[C@H](CCCNC(=N)N)NC(=O)[C@H](CCCNC(=N)N)NC(=O)[C@H](Cc1ccc(O)cc1)NC(=O)CNC(=O)[C@H](Cc1c[nH]cn1)NC(=O)[C@H](Cc1c[nH]cn1)NC(=O)[C@H](CCCNC(=N)N)NC(=O)[C@H](CCCCN)NC(=O)[C@H](CCC(=O)O)NC(=O)[C@H](Cc1c[nH]cn1)NC(=O)[C@H](CO)NC(=O)[C@@H](N)CC(=O)O)C(=O)N[C@@H](Cc1ccc(O)cc1)C(=O)N[C@@H](CC(=O)O)C(=O)N[C@@H](CC(N)=O)C(=O)O` gave a degradation of 77.5% (PAGE band density; whole saliva supernatant G1, diluted 1:10; 100 µg/mL, 48 h, 37 °C).
With `CC[C@H]1OC(=O)[C@H](C)[C@@H](O[C@H]2C[C@@](C)(OC)[C@@H](O)[C@H](C)O2)[C@H](C)[C@@H](O[C@@H]2O[C@H](C)C[C@H](N(C)C)[C@H]2O)[C@](C)(O)C[C@@H](C)C(=O)[C@H](C)[C@@H](O)[C@]1(C)O` the EC20 was greater than 400 µM (cytochrome c release, ELISA; BALB/cByJ female mouse liver mitochondria; 30 min; reference: alamethicin maximal release).
`CN1CCN(c2ccc(Nc3ncc4cc(C#N)c(=O)n(C5CCCC5)c4n3)cc2)CC1` has a tissue/plasma ratio of 3.1 (NIH Swiss nude mice, intracerebral U87 tumour, normal brain; intravenous, 25 mg/kg, together with: gefitinib 200 mg/kg oral 1 h before; reference: AUC brain over AUC plasma).
`C[C@H](Oc1ccc(-c2nc(-c3ccc4[nH]cnc4c3)no2)cc1C(F)(F)F)C(F)(F)F.Cl`: “predose plasma concentration” 7.4 ± 1.2 nM (cynomolgus monkey aneurysm model, plasma; 0.1 mg/kg once daily, 2 weeks dosing).
`C[C@@H](Oc1ccc(S(C)(=O)=O)cc1C(=O)N1C[C@@H]2C[C@]2(c2cc(C(F)(F)F)on2)C1)C(F)(F)F` has an AUC(0-167 h) of 26.8 µM·h (healthy men, plasma; oral, 25 mg, single dose, geometric mean, together with: itraconazole multiple doses).
`Cc1nc2cccc(OCC(C)(C)C(=O)NC(C)C)c2c(N)c1C(=O)O` has a Tmax of 6 h (female Sprague-Dawley rat, plasma; dietary, 60 mg/kg/day, day 7).
`CCn1cc(-c2cc(Cn3ccnc3)cc3c2CCN([C@H](c2cc(OC)ccn2)C2CC2)C3=O)c(C(F)(F)F)n1` has a clearance of 20 mL/min/kg (male CD-1 mouse, plasma; intravenous, 3 mg/kg).
With `CC(=O)N[C@@H](Cc1ccccc1)C(=O)N[C@H]1CCCNC(=O)[C@H](CCCNC(=N)N)NC(=O)[C@H](Cc2c[nH]c3ccccc23)NC(=O)[C@@H](CC2CCCCC2)NC(=O)[C@@H]2CCCN2C1=O` the elimination half-life was 5.99 min (C57BL/6J mice, plasma; intravenous, 1 mg/kg).
The Vd of `Nc1ccn([C@@H]2O[C@H](CO)[C@@H](O)C2(F)F)c(=O)n1` is reported as 0.03 L (male BALB/c mouse, plasma; intravenous, 38 µmol/kg).
`COc1cccc(-c2ccc(NC(=O)C3=C(C(=O)O)CCC3)c(F)c2)c1` has a Vd/F of 10.2 L (male human, plasma; oral, 40 mg, multiple doses, once daily).

Some of these lines once more:
`CC(C)C[C@H](NC(=O)[C@H](Cc1ccc(O)cc1)NC(=O)[C@H](CC(N)=O)NC(=O)[C@H](CO)NC(=O)CNC(=O)[C@H](Cc1ccc(O)cc1)NC(=O)[C@H](CC(=O)O)NC(=O)CNC(=O)[C@H](Cc1ccc(O)cc1)NC(=O)[C@H](Cc1ccccc1)NC(=O)[C@@H]1CCCN1C(=O)[C@H](Cc1ccccc1)NC(=O)[C@H](CCC(=O)O)NC(=O)[C@H](CCCNC(=N)N)NC(=O)[C@H](Cc1c[nH]cn1)NC(=O)[C@H](CO)NC(=O)[C@H](Cc1c[nH]cn1)NC(=O)[C@H](Cc1c[nH]cn1)NC(=O)[C@H](CCCCN)NC(=O)[C@H](CCC(=O)O)NC(=O)[C@H](Cc1c[nH]cn1)NC(=O)[C@H](Cc1ccccc1)NC(=O)[C@H](CCCCN)NC(=O)[C@H](CCCNC(=N)N)NC(=O)[C@H](CCCNC(=N)N)NC(=O)[C@H](Cc1ccc(O)cc1)NC(=O)CNC(=O)[C@H](Cc1c[nH]cn1)NC(=O)[C@H](Cc1c[nH]cn1)NC(=O)[C@H](CCCNC(=N)N)NC(=O)[C@H](CCCCN)NC(=O)[C@H](CCC(=O)O)NC(=O)[C@H](Cc1c[nH]cn1)NC(=O)[C@H](CO)NC(=O)[C@@H](N)CC(=O)O)C(=O)N[C@@H](Cc1ccc(O)cc1)C(=O)N[C@@H](CC(=O)O)C(=O)N[C@@H](CC(N)=O)C(=O)O` gave a degradation of 77.5% (PAGE band density; whole saliva supernatant G1, diluted 1:10; 100 µg/mL, 48 h, 37 °C).
With `CC[C@H]1OC(=O)[C@H](C)[C@@H](O[C@H]2C[C@@](C)(OC)[C@@H](O)[C@H](C)O2)[C@H](C)[C@@H](O[C@@H]2O[C@H](C)C[C@H](N(C)C)[C@H]2O)[C@](C)(O)C[C@@H](C)C(=O)[C@H](C)[C@@H](O)[C@]1(C)O` the EC20 was greater than 400 µM (cytochrome c release, ELISA; BALB/cByJ female mouse liver mitochondria; 30 min; reference: alamethicin maximal release).
